{"data": "Published values of several laboratories", "note": "Every numbered part comes from another study and shows a few of its results, in no order. Substitutions count along the parent as printed.", "sequence of UniProt Q9ZTX8 (whole entry, looked up)": "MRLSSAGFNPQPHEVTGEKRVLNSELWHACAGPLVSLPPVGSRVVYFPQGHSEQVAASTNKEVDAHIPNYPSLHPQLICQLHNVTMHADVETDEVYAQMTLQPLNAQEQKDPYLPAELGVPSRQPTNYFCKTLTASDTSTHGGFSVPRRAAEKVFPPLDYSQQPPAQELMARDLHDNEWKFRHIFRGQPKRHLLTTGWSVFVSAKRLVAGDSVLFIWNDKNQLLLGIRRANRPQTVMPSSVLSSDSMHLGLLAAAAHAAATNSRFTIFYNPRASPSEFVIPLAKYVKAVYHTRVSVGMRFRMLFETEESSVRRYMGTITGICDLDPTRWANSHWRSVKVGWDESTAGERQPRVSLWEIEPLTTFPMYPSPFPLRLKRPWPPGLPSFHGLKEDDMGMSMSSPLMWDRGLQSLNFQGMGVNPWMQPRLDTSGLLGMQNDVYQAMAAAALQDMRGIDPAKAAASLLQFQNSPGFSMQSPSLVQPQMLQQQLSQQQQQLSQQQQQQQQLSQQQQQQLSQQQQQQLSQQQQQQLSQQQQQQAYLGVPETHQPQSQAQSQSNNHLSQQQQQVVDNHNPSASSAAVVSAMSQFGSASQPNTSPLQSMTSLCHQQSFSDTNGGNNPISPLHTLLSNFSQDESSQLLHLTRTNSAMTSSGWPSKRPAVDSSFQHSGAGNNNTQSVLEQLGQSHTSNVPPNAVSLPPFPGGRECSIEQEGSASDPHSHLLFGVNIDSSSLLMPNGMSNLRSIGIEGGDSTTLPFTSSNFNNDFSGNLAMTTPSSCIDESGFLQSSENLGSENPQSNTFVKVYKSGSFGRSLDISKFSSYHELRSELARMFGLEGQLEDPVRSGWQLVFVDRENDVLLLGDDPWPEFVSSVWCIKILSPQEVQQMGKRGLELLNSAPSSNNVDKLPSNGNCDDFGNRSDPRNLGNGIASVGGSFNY", "sequence of UniProt Q9XED8 (whole entry, looked up)": "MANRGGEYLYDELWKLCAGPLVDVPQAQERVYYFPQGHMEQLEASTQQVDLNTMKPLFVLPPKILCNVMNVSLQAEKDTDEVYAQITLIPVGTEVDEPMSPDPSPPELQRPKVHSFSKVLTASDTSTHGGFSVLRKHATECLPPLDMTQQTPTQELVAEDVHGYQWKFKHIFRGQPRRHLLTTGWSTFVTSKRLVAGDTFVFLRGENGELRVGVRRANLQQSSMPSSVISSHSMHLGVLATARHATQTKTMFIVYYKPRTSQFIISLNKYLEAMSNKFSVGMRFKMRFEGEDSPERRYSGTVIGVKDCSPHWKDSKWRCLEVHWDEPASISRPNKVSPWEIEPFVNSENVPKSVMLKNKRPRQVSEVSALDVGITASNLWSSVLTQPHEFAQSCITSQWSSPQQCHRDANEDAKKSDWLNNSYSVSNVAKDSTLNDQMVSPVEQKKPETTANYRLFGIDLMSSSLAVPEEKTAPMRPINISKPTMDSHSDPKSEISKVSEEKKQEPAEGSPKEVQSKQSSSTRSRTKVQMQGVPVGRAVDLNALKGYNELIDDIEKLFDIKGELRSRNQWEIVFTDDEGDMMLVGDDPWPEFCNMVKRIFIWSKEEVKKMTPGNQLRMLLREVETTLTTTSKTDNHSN", "sequence of UniProt Q9LQE8 (whole entry, looked up)": "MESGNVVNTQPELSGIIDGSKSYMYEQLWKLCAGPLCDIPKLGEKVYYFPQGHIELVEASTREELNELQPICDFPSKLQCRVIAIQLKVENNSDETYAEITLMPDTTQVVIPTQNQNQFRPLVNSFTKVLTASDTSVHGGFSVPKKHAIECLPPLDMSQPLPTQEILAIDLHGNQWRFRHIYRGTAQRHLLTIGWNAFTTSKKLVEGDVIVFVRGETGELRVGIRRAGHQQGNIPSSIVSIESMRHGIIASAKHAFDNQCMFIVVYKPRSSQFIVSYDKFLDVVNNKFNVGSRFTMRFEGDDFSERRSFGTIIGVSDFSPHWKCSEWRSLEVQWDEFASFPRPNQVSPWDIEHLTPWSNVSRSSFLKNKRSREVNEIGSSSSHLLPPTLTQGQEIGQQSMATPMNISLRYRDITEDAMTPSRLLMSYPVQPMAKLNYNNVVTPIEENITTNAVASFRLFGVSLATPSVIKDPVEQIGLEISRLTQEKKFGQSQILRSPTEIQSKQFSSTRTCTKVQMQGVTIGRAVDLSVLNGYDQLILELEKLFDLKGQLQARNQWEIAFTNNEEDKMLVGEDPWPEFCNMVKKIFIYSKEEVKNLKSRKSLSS", "sequence of UniProt Q9ZPY6 (whole entry, looked up)": "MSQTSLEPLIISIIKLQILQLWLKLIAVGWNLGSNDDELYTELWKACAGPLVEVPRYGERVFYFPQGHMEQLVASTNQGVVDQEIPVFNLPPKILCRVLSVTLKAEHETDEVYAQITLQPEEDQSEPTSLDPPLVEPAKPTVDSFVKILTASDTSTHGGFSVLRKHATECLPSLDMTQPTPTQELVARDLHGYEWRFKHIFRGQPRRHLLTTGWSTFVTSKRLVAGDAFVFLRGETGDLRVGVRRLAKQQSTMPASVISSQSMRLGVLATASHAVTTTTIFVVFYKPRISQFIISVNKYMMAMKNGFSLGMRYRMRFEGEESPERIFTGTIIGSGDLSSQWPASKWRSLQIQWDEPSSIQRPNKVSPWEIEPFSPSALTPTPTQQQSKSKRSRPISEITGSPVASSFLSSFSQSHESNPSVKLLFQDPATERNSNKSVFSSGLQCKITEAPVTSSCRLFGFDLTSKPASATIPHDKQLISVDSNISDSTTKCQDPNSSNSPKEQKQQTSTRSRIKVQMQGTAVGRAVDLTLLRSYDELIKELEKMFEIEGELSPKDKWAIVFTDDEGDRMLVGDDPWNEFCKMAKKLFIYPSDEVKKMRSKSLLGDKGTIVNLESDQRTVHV", "sequence of UniProt P93024 (whole entry, looked up)": "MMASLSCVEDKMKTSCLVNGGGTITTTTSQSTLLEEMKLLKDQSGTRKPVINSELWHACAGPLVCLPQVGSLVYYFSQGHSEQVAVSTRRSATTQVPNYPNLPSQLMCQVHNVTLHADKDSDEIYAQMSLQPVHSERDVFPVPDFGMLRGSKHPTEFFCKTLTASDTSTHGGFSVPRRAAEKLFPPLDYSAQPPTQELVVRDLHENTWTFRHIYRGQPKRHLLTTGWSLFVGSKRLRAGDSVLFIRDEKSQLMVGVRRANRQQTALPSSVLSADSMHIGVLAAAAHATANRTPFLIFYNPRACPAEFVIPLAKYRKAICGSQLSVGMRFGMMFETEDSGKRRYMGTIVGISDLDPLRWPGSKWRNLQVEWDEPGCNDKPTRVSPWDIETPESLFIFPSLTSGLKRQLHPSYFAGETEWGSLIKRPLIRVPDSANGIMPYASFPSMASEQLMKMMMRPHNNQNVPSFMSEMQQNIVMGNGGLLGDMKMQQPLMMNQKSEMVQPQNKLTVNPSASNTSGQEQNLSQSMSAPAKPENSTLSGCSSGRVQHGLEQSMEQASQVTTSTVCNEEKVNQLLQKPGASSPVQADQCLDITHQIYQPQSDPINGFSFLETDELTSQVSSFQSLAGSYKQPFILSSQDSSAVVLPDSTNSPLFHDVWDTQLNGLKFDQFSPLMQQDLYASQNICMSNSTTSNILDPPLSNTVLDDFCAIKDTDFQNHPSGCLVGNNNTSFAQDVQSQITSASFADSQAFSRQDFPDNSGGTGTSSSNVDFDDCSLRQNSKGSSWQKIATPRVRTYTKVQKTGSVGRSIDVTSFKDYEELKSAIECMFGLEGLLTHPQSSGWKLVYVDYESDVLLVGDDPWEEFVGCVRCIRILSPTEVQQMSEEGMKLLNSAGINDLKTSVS", "sequence of UniProt Q94JM3 (whole entry, looked up)": "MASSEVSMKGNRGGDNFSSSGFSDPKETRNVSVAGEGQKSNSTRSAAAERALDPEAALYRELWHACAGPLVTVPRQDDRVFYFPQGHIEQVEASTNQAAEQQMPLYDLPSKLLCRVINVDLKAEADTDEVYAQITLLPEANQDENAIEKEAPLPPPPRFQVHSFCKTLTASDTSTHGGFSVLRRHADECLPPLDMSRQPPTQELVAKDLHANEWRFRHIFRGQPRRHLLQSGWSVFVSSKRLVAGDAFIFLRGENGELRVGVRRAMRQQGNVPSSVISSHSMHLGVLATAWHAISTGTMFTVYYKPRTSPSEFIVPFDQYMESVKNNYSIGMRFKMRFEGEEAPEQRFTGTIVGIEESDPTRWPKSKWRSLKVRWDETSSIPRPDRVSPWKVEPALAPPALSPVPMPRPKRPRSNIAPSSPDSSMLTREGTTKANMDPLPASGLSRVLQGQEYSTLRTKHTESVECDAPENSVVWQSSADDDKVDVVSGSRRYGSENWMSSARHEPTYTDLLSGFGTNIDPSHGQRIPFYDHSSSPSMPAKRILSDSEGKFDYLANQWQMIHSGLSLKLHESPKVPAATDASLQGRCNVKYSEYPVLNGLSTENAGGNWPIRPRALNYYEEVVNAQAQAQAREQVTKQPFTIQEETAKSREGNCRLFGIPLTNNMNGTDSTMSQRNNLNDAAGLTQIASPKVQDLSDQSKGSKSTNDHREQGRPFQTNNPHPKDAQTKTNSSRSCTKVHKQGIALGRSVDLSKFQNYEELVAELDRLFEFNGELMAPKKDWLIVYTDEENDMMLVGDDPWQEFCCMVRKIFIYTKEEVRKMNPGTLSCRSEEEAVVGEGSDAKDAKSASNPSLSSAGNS"}
{"data": "Sample 1", "target": "Histone acetyltransferase KAT6A, winged helix 1, GST fusion (KAT6A, Homo sapiens, UniProt Q92794, residues 1-85)", "method": "protein binding microarray", "molecule type": "double-stranded DNA, one strand shown", "sample": "in vitro", "concentration": "not given", "setting": "8-mer, flanks averaged, mean of 2 arrays, mostly near background", "baseline": "not given", "direction": "higher = stronger binding", "Target sequence (chain)": "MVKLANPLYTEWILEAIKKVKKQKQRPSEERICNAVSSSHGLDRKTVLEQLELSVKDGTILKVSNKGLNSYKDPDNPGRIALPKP"}
{"Oligonucleotide": "GCCCCACC", "E-score": 0.0403}
{"Oligonucleotide": "CAAGGAGG", "E-score": -0.0279}
{"Oligonucleotide": "GGGTTGTA", "E-score": 0.0425}
{"Oligonucleotide": "CCGGCCAA", "E-score": 0.132}
{"Oligonucleotide": "ACCCCGAC", "E-score": 0.218}
{"Oligonucleotide": "GTCGCGCA", "E-score": 0.378}
{"Oligonucleotide": "CTATCTGA", "E-score": -0.205}
{"Oligonucleotide": "AATCTGCC", "E-score": -0.0184}
{"data": "Sample 2", "Sequence": "B1 (IAA31)", "method": "two-hybrid", "direction": "higher = firmer interaction", "B1": "IAA31 (Arabidopsis thaliana, UniProt Q8H174); chain MEVSNSCSSFSSSSVDSTKPSPSESSVNLSLSLTFPSTSPQREARQDWPPIKSRLRDTLKGRRLLRRGDDTSLFVKVYMEGVPIGRKLDLCVFSGYESLLENLSHMFDTSIICGNRDRKHHVLTYEDKDGDWMMVGDIPWDMFLETVRRLKITRPERY"}
{"partner": "ARF2 727-859 (Arabidopsis thaliana, UniProt Q94JM3)", "baseline": "out of 4 tests", "positive tests": 1}
{"partner": "ARF6 790-935 (Arabidopsis thaliana, UniProt Q9ZTX8)", "baseline": "out of 2 tests", "positive tests": 2}
{"partner": "ARF11 500-622 (Arabidopsis thaliana, UniProt Q9ZPY6)", "baseline": "out of 2 tests", "positive tests": 0}
{"partner": "ARF9 519-638 (Arabidopsis thaliana, UniProt Q9XED8)", "setting": "weak activation fusion", "baseline": "out of 2 tests", "positive tests": 0}
{"partner": "ARF14 497-605 (Arabidopsis thaliana, UniProt Q9LQE8)", "baseline": "out of 2 tests", "positive tests": 0}
{"partner": "ARF5 788-902 (Arabidopsis thaliana, UniProt P93024)", "baseline": "out of 2 tests", "positive tests": 2}
{"data": "Sample 3", "target": "ABI1, truncated, D143A, DHFR fusion (Arabidopsis thaliana)", "method": "DHFR PCA, deep sequencing", "sample": "yeast", "setting": "methotrexate growth selection, single substitutions", "added": "(+)-ABA 2500 µM", "baseline": "wild-type fitted maximum", "direction": "higher = stronger binding", "starting sequence": "PYL1, truncated, DHFR fusion (Arabidopsis thaliana); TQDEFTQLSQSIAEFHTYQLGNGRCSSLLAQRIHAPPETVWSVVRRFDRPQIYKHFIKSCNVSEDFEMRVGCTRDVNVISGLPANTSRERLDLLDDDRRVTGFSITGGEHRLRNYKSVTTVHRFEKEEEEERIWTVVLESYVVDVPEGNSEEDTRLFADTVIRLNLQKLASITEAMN"}
{"Variant": "R24H", "relative binding score": "98.3%"}
{"Variant": "R163I", "relative binding score": "65.8%"}
{"Variant": "F56I", "relative binding score": "37.3%"}
{"Variant": "N149D", "relative binding score": "72.9%"}
{"Variant": "E128F", "relative binding score": "98%"}
{"Variant": "A170M", "relative binding score": "89.8%"}
{"Variant": "M68A", "relative binding score": "91.8%"}
{"Variant": "T39P", "relative binding score": "90.4%"}
{"data": "Other studies, line by line", "starting sequence": "viral docking peptide; KKAKRRLFTISDS"}
{"Variant": "KKAKRALFTISDS [R6A]", "target": "CCNB1, cyclin fold, Cln2 fusion (human)", "test": "yeast growth competition, sequencing", "test system": "yeast", "conditions": "weak parent motif", "how to read": "baseline: not given, higher = stronger binding", "quantity": "normalised enrichment score", "value": 1.52}
{"note": "Repeated from above (sample 3):"}
{"Variant": "N149D", "relative binding score": "72.9%"}
{"Variant": "F56I", "relative binding score": "37.3%"}
{"Variant": "R163I", "relative binding score": "65.8%"}
